Experimental data pooled from the literature.
Compare with care: the assays were run in different laboratories. “And” joins repeats or separate records; there may be more than shown.
Target: cGMP-inhibited 3',5'-cyclic phosphodiesterase 3A (PDE3A, Homo sapiens, UniProt Q14432)

SMILES | assay | conditions | scale | quantity | result
C[C@H](NCc1ccc(-c2ccc(C(F)(F)F)cc2)cc1)C(N)=O | enzyme activity | 1 µM, together with: 1.01 µM [3H]cAMP |  | inhibition | -7%
C/C(=N\OCCCN1CCCCC1)c1ccc(C(F)(F)F)cc1 | antagonist, FP | 10 µM |  | inhibition | 2.17%
O=C(O)c1ccc(-c2nc(-c3ccccc3Cl)c3sccn23)cc1 | radioligand binding, safety screen panel | 10 µM | baseline: control | specific binding | 68% and 88.4%
Cc1cc(-c2ccc3ccccc3c2)nnc1NCCN1CCN(C)CC1 | enzyme activity | 10000 nM |  | inhibition | 5%
Cc1cc(Nc2nc(C[C@@]3(C(=O)O)CCN(Cc4cccc(Cl)c4F)[C@H](C)C3)cc(C)c2F)[nH]n1 | enzyme activity, inhibitor | 10 µM |  | inhibition | -0.09%
CCN(CC)CCOc1ccc(-c2nnn(Cc3ccc(OC)cc3)c2N)cc1 | enzyme activity | 10 µM |  | inhibition | -1.87%
CCc1nnc(-c2c(OC)cc(-c3cnc4cc(-c5cnn(C)c5)ccn34)cc2OC)o1 |  | 10 µM | baseline: control | specific binding | 99.9%
CS(C)(=O)=Nc1ccc(-c2ccc(-c3nc4cc(O[C@@H]5CO[C@H]6[C@@H]5OC[C@H]6O)[nH]c4cc3F)cc2)cc1 | enzyme activity, inhibitor | 10 µM |  | inhibition | 6%

A few entries again:
SMILES | assay | conditions | scale | quantity | result
Cc1cc(Nc2nc(C[C@@]3(C(=O)O)CCN(Cc4cccc(Cl)c4F)[C@H](C)C3)cc(C)c2F)[nH]n1 | enzyme activity, inhibitor | 10 µM |  | inhibition | -0.09%
